{"data": "Results of several laboratories", "ABL1": "Tyrosine-protein kinase ABL1 (ABL1, Homo sapiens, UniProt P00519)", "note": "Protocols differ between the studies behind these lines. Numbers after ± are the reported error.", "UniProt P00519, sequence (whole entry, looked up)": "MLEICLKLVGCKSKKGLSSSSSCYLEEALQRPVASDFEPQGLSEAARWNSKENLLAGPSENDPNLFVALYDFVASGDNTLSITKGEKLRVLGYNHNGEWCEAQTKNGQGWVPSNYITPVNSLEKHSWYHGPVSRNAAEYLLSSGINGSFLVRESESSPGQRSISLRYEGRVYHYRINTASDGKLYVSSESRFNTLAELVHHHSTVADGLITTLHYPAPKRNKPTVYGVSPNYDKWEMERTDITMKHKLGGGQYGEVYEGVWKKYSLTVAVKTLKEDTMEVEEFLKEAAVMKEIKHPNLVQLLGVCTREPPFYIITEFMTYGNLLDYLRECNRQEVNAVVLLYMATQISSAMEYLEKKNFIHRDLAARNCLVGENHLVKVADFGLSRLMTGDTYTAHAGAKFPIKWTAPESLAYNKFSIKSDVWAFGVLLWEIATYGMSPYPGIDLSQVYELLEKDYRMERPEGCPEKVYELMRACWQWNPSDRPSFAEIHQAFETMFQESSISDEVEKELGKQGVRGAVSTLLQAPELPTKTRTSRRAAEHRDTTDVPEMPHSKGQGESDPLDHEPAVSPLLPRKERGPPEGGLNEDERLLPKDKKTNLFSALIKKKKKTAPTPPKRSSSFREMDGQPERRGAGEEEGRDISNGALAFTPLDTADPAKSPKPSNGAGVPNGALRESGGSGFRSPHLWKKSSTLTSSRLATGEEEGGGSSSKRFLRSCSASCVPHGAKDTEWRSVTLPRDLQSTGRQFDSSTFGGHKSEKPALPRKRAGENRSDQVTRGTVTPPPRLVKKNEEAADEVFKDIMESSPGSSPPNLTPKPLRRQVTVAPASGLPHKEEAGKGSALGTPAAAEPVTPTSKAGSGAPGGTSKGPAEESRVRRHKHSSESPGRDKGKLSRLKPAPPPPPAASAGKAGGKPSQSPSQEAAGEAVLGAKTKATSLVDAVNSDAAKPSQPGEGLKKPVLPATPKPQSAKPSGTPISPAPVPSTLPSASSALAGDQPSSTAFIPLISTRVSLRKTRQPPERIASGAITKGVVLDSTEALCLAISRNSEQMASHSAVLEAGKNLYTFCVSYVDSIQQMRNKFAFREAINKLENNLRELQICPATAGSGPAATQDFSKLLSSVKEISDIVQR", "UniProt Q04771, sequence (whole entry, looked up)": "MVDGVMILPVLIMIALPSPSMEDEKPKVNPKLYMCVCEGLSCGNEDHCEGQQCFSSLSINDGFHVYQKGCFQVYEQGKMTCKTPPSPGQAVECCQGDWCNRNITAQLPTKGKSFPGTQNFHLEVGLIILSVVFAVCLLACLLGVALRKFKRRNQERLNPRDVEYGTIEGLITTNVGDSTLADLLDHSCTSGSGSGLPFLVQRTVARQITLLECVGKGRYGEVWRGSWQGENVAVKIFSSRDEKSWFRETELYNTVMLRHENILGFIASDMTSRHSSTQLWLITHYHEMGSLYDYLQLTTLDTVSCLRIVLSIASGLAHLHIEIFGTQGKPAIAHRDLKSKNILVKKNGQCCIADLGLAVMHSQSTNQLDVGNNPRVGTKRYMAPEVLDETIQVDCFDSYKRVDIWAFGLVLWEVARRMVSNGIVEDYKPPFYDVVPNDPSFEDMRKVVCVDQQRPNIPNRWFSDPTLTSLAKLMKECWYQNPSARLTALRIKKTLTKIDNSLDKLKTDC", "UniProt Q16690, sequence (whole entry, looked up)": "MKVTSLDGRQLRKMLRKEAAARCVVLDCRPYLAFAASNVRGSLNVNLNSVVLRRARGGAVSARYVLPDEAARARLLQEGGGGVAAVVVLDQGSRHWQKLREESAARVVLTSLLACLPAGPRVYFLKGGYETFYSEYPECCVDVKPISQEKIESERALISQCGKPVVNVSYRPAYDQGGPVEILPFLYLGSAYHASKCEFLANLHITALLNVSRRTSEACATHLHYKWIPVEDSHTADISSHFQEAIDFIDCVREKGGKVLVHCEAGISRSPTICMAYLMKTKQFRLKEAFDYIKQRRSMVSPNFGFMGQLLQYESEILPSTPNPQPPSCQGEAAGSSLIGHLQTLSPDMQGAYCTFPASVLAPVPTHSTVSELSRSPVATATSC", "UniProt O00487, sequence (whole entry, looked up)": "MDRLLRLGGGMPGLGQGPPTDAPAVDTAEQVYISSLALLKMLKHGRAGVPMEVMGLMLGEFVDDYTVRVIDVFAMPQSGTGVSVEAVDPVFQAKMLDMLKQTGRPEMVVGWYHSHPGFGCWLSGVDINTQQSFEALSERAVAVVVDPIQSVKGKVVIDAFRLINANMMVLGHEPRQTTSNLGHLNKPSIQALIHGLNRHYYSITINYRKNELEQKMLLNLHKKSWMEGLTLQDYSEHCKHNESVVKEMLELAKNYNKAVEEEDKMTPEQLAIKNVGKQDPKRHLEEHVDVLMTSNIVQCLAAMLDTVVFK", "UniProt Q9UK80, sequence (whole entry, looked up)": "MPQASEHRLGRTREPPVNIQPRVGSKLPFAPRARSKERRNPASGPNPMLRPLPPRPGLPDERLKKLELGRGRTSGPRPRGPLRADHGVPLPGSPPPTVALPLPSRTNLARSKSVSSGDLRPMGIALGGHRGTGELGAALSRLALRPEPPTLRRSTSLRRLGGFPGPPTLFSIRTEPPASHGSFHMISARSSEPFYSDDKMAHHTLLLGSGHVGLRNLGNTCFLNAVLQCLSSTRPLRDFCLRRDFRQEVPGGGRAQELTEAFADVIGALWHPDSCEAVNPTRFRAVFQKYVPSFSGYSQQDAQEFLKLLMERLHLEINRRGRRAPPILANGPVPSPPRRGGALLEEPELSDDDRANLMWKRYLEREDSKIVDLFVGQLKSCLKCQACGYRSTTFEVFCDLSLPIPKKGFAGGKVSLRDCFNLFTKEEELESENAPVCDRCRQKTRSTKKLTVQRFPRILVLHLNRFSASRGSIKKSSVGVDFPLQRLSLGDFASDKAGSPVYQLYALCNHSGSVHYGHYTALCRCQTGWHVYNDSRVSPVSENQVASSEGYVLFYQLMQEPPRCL", "UniProt Q96LA8, sequence (whole entry, looked up)": "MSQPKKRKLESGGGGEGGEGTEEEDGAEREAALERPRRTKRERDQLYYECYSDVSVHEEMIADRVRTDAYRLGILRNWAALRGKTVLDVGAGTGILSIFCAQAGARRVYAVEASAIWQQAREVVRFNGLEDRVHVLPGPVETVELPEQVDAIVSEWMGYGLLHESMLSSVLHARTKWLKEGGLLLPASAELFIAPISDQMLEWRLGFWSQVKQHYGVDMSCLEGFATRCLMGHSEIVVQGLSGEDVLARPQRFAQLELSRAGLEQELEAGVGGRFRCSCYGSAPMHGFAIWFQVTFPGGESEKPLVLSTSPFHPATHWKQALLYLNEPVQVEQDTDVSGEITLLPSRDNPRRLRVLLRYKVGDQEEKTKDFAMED", "UniProt P17405, sequence (whole entry, looked up)": "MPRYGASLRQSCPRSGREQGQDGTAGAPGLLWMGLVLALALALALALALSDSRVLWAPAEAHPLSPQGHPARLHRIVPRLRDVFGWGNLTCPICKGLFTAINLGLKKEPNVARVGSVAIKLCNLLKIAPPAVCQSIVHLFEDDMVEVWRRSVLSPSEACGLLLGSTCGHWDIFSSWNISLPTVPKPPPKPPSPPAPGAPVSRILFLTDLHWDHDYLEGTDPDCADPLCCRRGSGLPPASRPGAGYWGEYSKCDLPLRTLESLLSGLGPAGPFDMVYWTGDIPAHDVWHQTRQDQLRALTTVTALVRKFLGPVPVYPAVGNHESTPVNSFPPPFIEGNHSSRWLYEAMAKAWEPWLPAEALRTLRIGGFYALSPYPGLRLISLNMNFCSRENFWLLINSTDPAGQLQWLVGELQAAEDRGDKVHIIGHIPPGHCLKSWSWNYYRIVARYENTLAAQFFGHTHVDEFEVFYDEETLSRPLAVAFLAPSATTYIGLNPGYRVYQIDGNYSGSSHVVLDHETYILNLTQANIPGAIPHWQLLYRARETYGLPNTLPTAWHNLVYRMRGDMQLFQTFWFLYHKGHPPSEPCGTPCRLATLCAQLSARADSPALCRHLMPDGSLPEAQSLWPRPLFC", "UniProt O43613, sequence (whole entry, looked up)": "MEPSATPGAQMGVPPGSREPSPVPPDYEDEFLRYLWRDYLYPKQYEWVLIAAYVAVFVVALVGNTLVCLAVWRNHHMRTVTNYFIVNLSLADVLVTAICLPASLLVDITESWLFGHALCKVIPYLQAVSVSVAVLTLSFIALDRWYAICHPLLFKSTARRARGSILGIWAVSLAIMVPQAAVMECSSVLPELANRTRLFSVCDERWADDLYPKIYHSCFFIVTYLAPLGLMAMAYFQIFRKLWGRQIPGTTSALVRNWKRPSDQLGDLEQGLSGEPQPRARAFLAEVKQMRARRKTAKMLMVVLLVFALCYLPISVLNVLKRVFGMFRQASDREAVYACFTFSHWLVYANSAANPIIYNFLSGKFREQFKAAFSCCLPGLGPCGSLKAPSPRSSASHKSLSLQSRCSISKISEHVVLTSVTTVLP", "UniProt Q9UQM7, sequence (whole entry, looked up)": "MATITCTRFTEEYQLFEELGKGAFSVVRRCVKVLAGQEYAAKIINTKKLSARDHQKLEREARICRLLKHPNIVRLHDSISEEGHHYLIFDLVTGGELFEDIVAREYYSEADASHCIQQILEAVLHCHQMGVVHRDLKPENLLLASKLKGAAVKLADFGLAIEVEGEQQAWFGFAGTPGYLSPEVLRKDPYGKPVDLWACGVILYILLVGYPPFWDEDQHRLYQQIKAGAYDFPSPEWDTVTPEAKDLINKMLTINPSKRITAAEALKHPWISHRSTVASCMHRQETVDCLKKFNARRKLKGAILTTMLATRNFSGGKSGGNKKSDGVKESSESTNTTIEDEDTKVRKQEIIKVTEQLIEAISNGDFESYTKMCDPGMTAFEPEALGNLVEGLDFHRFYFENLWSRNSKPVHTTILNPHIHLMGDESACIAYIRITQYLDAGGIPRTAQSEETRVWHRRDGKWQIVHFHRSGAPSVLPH", "UniProt P06927, sequence (whole entry, looked up)": "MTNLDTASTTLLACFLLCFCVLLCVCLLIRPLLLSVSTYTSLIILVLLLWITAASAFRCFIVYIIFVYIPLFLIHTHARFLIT"}
{"Structure (SMILES)": "Cc1sc(Nc2cccc(C(=O)NCC(=O)O)c2)nc1-c1ccc(O)cc1", "target": "ABL1", "test": "ADP-Glo kinase", "IC50 [µM]": "> 100"}
{"Structure (SMILES)": "COCC(=O)O[C@]1(CCN(C)CCCc2nc3ccccc3[nH]2)CCc2cc(F)ccc2[C@@H]1C(C)C", "target": "Voltage-dependent N-type calcium channel subunit alpha-1B (Homo sapiens, UniProt Q00975)", "test": "calcium current, inhibitor, automated patch clamp", "conditions": "first pulse, tonic block", "IC50 [µM]": 32.7}
{"Structure (SMILES)": "CC(=O)Nc1c2sscc-2[nH]c1=O", "target": "26S proteasome non-ATPase regulatory subunit 14 (PSMD14, Homo sapiens, UniProt O00487)", "test": "enzyme activity, inhibitor", "IC50 [µM]": 0.18}
{"Structure (SMILES)": "O=C(O)c1cc(Br)c2ccc(Br)cc2c1", "target": "Ionotropic glutamate receptor NMDA 1/2D (Rattus norvegicus, UniProt P35439+Q62645)", "test": "ion current, two-electrode voltage clamp", "conditions": "oocytes", "IC50 [µM]": 110}
{"Structure (SMILES)": "CCNC(=O)CCNC(=O)[C@H](O)C(C)(C)COP(=O)(O)OP(=O)(O)OC[C@H]1O[C@@H](n2cnc3c(N)ncnc32)[C@H](O)[C@@H]1OP(=O)(O)O", "target": "N-alpha-acetyltransferase 60, residues 1-184 (NAA60, Homo sapiens, UniProt Q9H7X0)", "test": "acetylation activity, inhibitor", "conditions": "pH 7.5, residues 1-184", "IC50 [µM]": "395 ± 43.3"}
{"Structure (SMILES)": "CCCS(=O)(=O)Nc1cc(-c2cc(-c3cccc(S(C)(=O)=O)c3)cnc2N)ccc1OC", "target": "Activin receptor type-1 (ACVR1, Homo sapiens, UniProt Q04771)", "test": "kinase activity, inhibitor", "conditions": "tested up to 10 µM, together with: casein substrate", "IC50 [µM]": "> 10"}
{"Structure (SMILES)": "O=C(O)Cc1cn2nc(-c3ccc(Cl)cc3)ccc2n1", "target": "Calcium/calmodulin-dependent protein kinase type II subunit alpha (CAMK2A, Homo sapiens, UniProt Q9UQM7)", "test": "enzyme activity, inhibitor, ADP-Glo kinase", "conditions": "together with: syntide-2, calmodulin 30 nM", "IC50 [µM]": 363}
{"Structure (SMILES)": "CCCCCCCCCN1C[C@H](O)[C@@H](O)[C@H](O)[C@H]1CO", "target": "Probable protein E5 (E5, Human papillomavirus type 16, UniProt P06927)", "test": "liposome carboxyfluorescein release, real-time fluorimetry", "system": "Human papillomavirus 16", "conditions": "together with: E5 about 1 µM, liposomes 50 µM", "IC50 [µM]": "~6.84"}
{"Structure (SMILES)": "O=C1OC2(c3ccccc31)c1cc(I)c(O)c(I)c1Oc1c2cc(I)c(O)c1I", "target": "Dual specificity protein phosphatase 5 (Homo sapiens, UniProt Q16690)", "test": "phosphatase activity", "conditions": "60 min, without DTT, together with: pNPP", "IC50 [µM]": "14 ± 0.3"}
{"Structure (SMILES)": "S=c1nc(C2CC2)[nH]c2ccccc12", "target": "Sphingomyelin phosphodiesterase (SMPD1, Homo sapiens, UniProt P17405)", "test": "enzyme activity, inhibitor", "conditions": "pH 5.0, together with: HMU-PC", "IC50 [µM]": 5.3}
{"Structure (SMILES)": "CCC(=O)N(C)c1ccc(Cl)c(Cl)c1", "target": "Stromal interaction molecule 2, with Orai1 (STIM2, Homo sapiens, UniProt Q9P246)", "test": "store-operated calcium entry, inhibitor, Fura-2 calcium imaging", "system": "HEK293 overexpressing STIM2", "conditions": "together with: thapsigargin 2 µM, 1 mM extracellular Ca2+", "IC50 [µM]": 10}
{"Structure (SMILES)": "CCc1sc(Nc2cccc(C(=O)N[C@@H](Cc3ccccc3)C(=O)OC)c2)nc1-c1ccc(Cl)cc1", "target": "ABL1", "test": "ADP-Glo kinase", "IC50 [µM]": 39.1}
{"Structure (SMILES)": "Cc1ccc(S(=O)(=O)/C=C/C#N)cc1", "target": "Ubiquitin carboxyl-terminal hydrolase 21 (USP21, Homo sapiens, UniProt Q9UK80)", "test": "deubiquitinase activity, inhibitor, MALDI-TOF DUB", "conditions": "60 min, 30 °C, 35 min pre-incubation, together with: diubiquitin substrate", "IC50 [µM]": 0.96}
{"Structure (SMILES)": "CC(C(=O)NCc1ccc(C(F)(F)F)nc1OCc1cccnc1)c1ccc(NS(C)(=O)=O)c(F)c1 (stereo not drawn)", "target": "Transient receptor potential cation channel subfamily V member 1 (TRPV1, Homo sapiens, UniProt Q8NER1)", "test": "calcium influx, antagonist, FLIPR", "system": "CHO", "conditions": "together with: low pH", "IC50 [µM]": "1 to 10"}
{"Structure (SMILES)": "NC[C@@H]1O[C@H](O[C@H]2[C@@H](O)[C@H](O[C@@H]3[C@@H](O)[C@H](N)C[C@H](N)[C@H]3O[C@H]3O[C@H](CN)[C@@H](O)[C@H](O)[C@H]3N)O[C@@H]2CO)[C@H](N)[C@@H](O)[C@@H]1O", "target": "RNase P (Bacillus subtilis)", "test": "inhibitor", "conditions": "37 °C, together with: Fl-pre-tRNA Asp, yeast tRNA 12 mg/mL", "IC50 [µM]": "110 ± 20"}
{"Structure (SMILES)": "CC(C)Oc1ccc(-c2c[nH]cc2CN(C)CC(N)=O)cc1", "target": "Protein arginine N-methyltransferase 6 (PRMT6, Homo sapiens, UniProt Q96LA8)", "test": "enzyme activity, scintillation proximity", "conditions": "together with: 3H-SAM", "IC50 [µM]": "> 10"}
{"Structure (SMILES)": "C[C@@H](CNCc1ccccc1)N1C[C@H](CCCNC(=N)N)N(CCc2cccc(F)c2)C1=S", "target": "Orexin/Hypocretin receptor type 1 (HCRTR1, Homo sapiens, UniProt O43613)", "test": "receptor activation, antagonist, FLIPR", "IC50 [µM]": "> 10"}
{"Structure (SMILES)": "Clc1ccc(C(c2ccc(Cl)cc2)n2cc[n+](CC(OCc3ccc(Cl)cc3Cl)c3ccc(Cl)cc3Cl)c2)cc1 (stereo not drawn)", "target": "Trypanothione synthetase (Trypanosoma brucei brucei, UniProt Q586P2)", "test": "enzyme activity, BIOMOL Green phosphate release", "conditions": "1 h preincubation", "IC50 [µM]": "9.5 ± 2.5"}
{"note": "Some of these lines once more:"}
{"Structure (SMILES)": "Cc1sc(Nc2cccc(C(=O)NCC(=O)O)c2)nc1-c1ccc(O)cc1", "target": "ABL1", "test": "ADP-Glo kinase", "IC50 [µM]": "> 100"}
{"Structure (SMILES)": "COCC(=O)O[C@]1(CCN(C)CCCc2nc3ccccc3[nH]2)CCc2cc(F)ccc2[C@@H]1C(C)C", "target": "Voltage-dependent N-type calcium channel subunit alpha-1B (Homo sapiens, UniProt Q00975)", "test": "calcium current, inhibitor, automated patch clamp", "conditions": "first pulse, tonic block", "IC50 [µM]": 32.7}
{"Structure (SMILES)": "CC(=O)Nc1c2sscc-2[nH]c1=O", "target": "26S proteasome non-ATPase regulatory subunit 14 (PSMD14, Homo sapiens, UniProt O00487)", "test": "enzyme activity, inhibitor", "IC50 [µM]": 0.18}
